Results collected from several papers.
Parts stem from different laboratories: compare values within a part only.

Block 1
Target: RING finger protein unkempt homolog, zinc fingers 1-6, GST-SBP tag (UNK, Homo sapiens, UniProt Q9C0B0, residues 30-357)
Sequence of UniProt Q9C0B0 (30-357, looked up): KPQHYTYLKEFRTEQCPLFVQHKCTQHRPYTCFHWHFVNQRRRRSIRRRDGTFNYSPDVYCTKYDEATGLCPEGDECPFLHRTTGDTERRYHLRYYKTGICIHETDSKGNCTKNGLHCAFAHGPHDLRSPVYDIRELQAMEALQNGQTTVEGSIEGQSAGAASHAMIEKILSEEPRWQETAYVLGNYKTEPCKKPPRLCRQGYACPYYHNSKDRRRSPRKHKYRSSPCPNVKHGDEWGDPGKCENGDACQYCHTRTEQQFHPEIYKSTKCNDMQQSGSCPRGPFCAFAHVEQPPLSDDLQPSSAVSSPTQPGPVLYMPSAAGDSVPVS
Method: RNA Bind-n-Seq
Form: RNA
Sample: in vitro
Concentration: not given
Setting: RNA with constant flanks, human and mouse sites, ends assumed
Reference: input RNA pool
Direction: higher = stronger binding
Shared flanks, not repeated: GGGAGUUCUACAGUCCGACGAUC … CAACAGAGGAUUGAGCAUCA
Strand	bound/input enrichment [ratio]
AUAUUGAAACAGUCUGCAGAUUUCCUAGCCAUAAAUAAACUUCUAAAGUACUCAUGGUUUUUCUUUGAAAUAAUUGCAAAGUCGAUGGCCACAUACUUAUUGGAAGAGAAUAAAAUUAAG	0.208
CAGGGACUCUGGUGCCAAAUCCAGAAAGAUCUGCUCUGCUGCCCUGAACUCUUACGGCAAUUUAGGUUUCUCAUUUUUCUUUUCUUUUUACAUAUGUACAAAUUGUUUUAAGCUUUGGCC	7.24
CCUGUUGAGGAGGAUGUGCUAUGGGAGAGGCUGACUAGCACCAAGAAGGCGGUGAAAGCUGCUCUAGCCAAUGACUUUGACACACCGAGGGCAGUGAACACCAUCCUGGACCUUGUGCAC	0.126
CCUCGUACAAAUGGCAUGUGUUCAGUAUGCUAUAAAGAACAUCUUCAAAGACAGAAUAGUAGUAAUGGUAGAAUAAGCCCACCUGCAACCUCUGUCAGUAGUCUGUCUGAAUCUUUACCA	0.641
GUGUGGACAGCUGACAAAUUUAAUCCUUUGUAAUACUUUCUUUGUGACAUUUCUCUUCCCCUUAGAAACAUUGCACAUUUUAACUCUAGGCAUGGCCUCUUCUGGUGUUGACUGGACUUG	2.24
UGUAGAGCGAAUGUAUACCUGCUUCCCACAGGGGAGAUAGUUUAUUUUAUCGCCUCAGUGGUAGUCCUGUUUAAUUAUGAGGAGAGGACUCAGCGACACUACCUGGGUCAUACAGACUGU	0.942
UAGCAUGGAUUCUUUUUCCAUUUAUUGAAUGUGAGGGAUUUCGAUUGUUUCCAGUUCUUUUAGUUCAGUUUGUAUUGAAUACAUAUAACAAUGUGGUUUCUUACUGUUGGUGAUGGGUCA	1.37
AGUAGCACUUUUGUUGUACAUUGUGUUCCAAUAAGUAUAGUAUGGAACACUUUCUCAUUUUUAGUUCCCAUAAUAUGCCAGUUUUUGCUUUCCUAGUGUUCUGUGAGUAUUAGGAUUUGG	16.5
AACAAACUUAUAGUGAUGCGUUGGAAGGUUAAUCGAAACCAUCCUUACCCCUAUUUAAUGUAGUUUACCUUGAUUUUUAUCUGAUAUUAACAAUACCAUAUAGCUUGCUUUUUAUUAGCA	29.8
GGUCGGCUCUACCAAGUAGAAUAUGCUUUUAAGGCUAUUAACCAGGGUGGCCUUACAUCAGUAGCUGUCAGAGGGAAAGACUGUGCAGUAAUUGUCACACAGAAGAAAGUACCUGACAAA	0.532
UGUGUGACAUUUGCUGCAGAUGUGCCUGUGUACAUUGCUGGCCAGCAGGCUUUCUUCAACUAUUCUACAAGUAAAAGAAUCACUCGGCCAGGAAAUACCGACGAUCCAUCAGGGGGCAAC	0.119

Block 2
Target: Ras GTPase-activating protein-binding protein 1, C-terminal RGG region (G3BP1, Homo sapiens, UniProt Q13283)
Sequence of UniProt Q13283 (whole entry, looked up): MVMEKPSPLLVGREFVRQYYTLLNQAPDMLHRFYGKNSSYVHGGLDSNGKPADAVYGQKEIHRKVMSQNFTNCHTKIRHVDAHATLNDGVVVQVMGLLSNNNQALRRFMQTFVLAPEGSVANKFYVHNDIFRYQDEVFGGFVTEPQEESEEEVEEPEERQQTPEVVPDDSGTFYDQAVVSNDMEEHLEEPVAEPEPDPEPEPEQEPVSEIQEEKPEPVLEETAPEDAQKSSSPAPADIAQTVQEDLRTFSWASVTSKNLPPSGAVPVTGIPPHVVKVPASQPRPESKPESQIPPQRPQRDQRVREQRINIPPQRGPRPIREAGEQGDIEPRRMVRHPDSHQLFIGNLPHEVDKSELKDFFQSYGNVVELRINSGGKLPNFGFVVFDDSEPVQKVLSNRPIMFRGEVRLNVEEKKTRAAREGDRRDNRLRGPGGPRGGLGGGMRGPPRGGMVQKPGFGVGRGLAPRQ
Method: RNA Bind-n-Seq
Form: RNA
Sample: in vitro
Concentration: 1 µM
Setting: whole 134-nt RNA, ends assumed
Together with: 150 mM KCl
Reference: input library
Direction: higher = stronger binding
Shared flanks, not repeated: GGGAGUUCUACAGUCCGACGAUC … UGGAAUUCUCGGGUGUCAAGG
Strand	log2 enrichment
UGCCUCGGGAGGAGCUGUUUGUGACAUCCAAGCUGUGGAACACCAAGCACCACCCCGAGGAUGUGGAGCCUGCCCUCCGGAAGACUCUGG	-1.86
GGCCCGACCUGAUCGACUUUGAUAAGCUGAAGGACUCCAAUGCCCGGCACAACCUGGAGCACGCAUUCAAUGUGGCUGAGCGCCAGCUGG	-0.663
UGGGAGGUGGAUUUUGUUUAUUUUUUUAGCUCAUUUCCAGGGGUGGGAAUUUUUUUUAAAUAUGUGUCAUGAAUAAAGUUGUUUUUGAAA	3.62
AGUCCUGUGCUACACAUCGUAUGUACCGAAUCGGGGAAAGGGGUGGGGAAAAAGGGGAAAGUAUUAUGUUACGCCGUUCGGAUCUGCACU	1.45
AGUCCUGUGCUACACAUCGUAUGUACCGAAUCGGGGUUUGGGGAGGGGUUUUUGGGGAAAGUAUUAUGUUACGCCGUUCGGAUCUGCACU	1.65
UCAAGUCCUGUGCUACACAUCGUAUGUACCGAAUCGGGUUUGGUUUGGGUUUGGAAAGUAUUAUGUUACGCCGUUCGGAUCUGCACUUCC	-1.13
UGGGAGGUGGAUUUUGUUUAUUUUUUUAGCUCAUUUCCAGGGGUGGGAAUUUGUUUUUAAUAUGUGUCAUGAAUAAAGUUGUUUUUGAAA	2.81
UCAAGUCCUGUGCUACACAUCGUAUGUACCGAAUCGGGAAGGGGAAGGAAGGGGAAAGUAUUAUGUUACGCCGUUCGGAUCUGCACUUCC	0.944
GUCCUGUGCUACACAUCGUAUGUACCGAAUCGGGUUUUUUUGGGAGGGAAAAAAAGGGAAAGUAUUAUGUUACGCCGUUCGGAUCUGCAC	-0.656
AAGUCCUGUGCUACACAUCGUAUGUACCGAAUCGGAAAAAGGAAAAAGGGAAAAAGGAAAGUAUUAUGUUACGCCGUUCGGAUCUGCACU	-1.94
CUCAAGUCCUGUGCUACACAUCGUAUGUACCGAAUCGGAGGAAAAAGGUUUGGAAAGUAUUAUGUUACGCCGUUCGGAUCUGCACUUCCA	-1.27
CCUGUGCUACACAUCGUAUGUACCGAAUCGGGGAAAAAAGGGAAAAAAGGAAAAAAGGGGAAAGUAUUAUGUUACGCCGUUCGGAUCUGC	-1.69
UCCUGUGCUACACAUCGUAUGUACCGAAUCAAAUUUUUUUAAACCCAAAUUUUUUUAAAAAAGUAUUAUGUUACGCCGUUCGGAUCUGCA	-0.45
UCCUGUGCUACACAUCGUAUGUACCGAAUCGGGGUUUUUGGGGUGGGGAAAAAAAGGGGAAAGUAUUAUGUUACGCCGUUCGGAUCUGCA	1.51

Block 3
Target: RNA binding protein fox-1 homolog 2, RRM domain, GST-SBP tag (RBFOX2, Homo sapiens, UniProt O43251-10, residues 100-194)
Method: RNA Bind-n-Seq
Form: RNA
Sample: in vitro
Concentration: 365 nM
Setting: natural RNA segment, single round, ends assumed
Reference: no-protein control
Direction: higher = stronger binding
Shared flanks, not repeated: GGGAGUUCUACAGUCCGACGAUC … UGGAAUUCUCGGGUGCCAA
Residues (chain): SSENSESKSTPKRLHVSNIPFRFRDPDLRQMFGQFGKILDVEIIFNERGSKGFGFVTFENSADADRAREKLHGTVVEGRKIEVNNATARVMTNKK
Strand	RBNS enrichment (R)
AUGUUGUGUAUGUUUUAACAUCUCUGAUGCUGUGUUACUAAAAUUACAAGGACCUGCUUUUUAAAAGGCCAGAACAAUUGUCUGAAAUUAGUAACAAUGCUGCAUCUAGA	0.293
UGUCGCCUGGCCCCACGUGUGGUGUUUUGUGUGUUCCUGCCUGGCCAAGGGAGGUGCCAAUGCUGGGCUUACCAUAGUCCAGGAAGAAUAUGAGGACUAGGGGCACACAA	0.46
CCUGCAGGGCAGGUCCUAGGAUGGGAAAGACAAAUGUACACCUUUCUAUGGCUCUUCCUGAGAGCACACCUCUGGGUCUCAUCUGACAGAGUCUGUGGGCCAAGUGUCUG	0.365
UUCUGCGUUGGCUGGGGCAGAGCUCAGCACCCUCAGCCCUGCGGCCGUUCAUCUUGUGUGUUUGUGACUUACUUUUGUAGCCUGUCAUCUUCUGGGCCCAGAGUCAGGGU	0.521
GGGUAAAGAGAUUUCUAUAGAACGAAUUUGGGAGGCCAGUGAGAUCGGCUCGGCAGGCACAGGCACUUAUUGUGUGAACCUGGCACUGGGUCCAGUCUCCAGGACCUAUC	0.449
CUGAGAAGUCAAGAGAGGACAUUGGCUCACGCACUGUGAGAUUUUGUUUUUAUACUUGGAAGUGGUGAAUUAUUUUAUAUAAAGUCAUUUAAAUAUCUAUUUAAAAGAUA	0.442
CUCAUCAGUGGCUAAAGUUGAAAAGGGGUUGGUUUCCUGUAUAUAUAUGUAUGUAUAUACACACGUACAUACAUUCAUAUAUAUACAUAUAUACAUAAUGUGCUUAACCA	0.272
CUGACUUCUGCGGACAGCAAUUUGGUAGGUAGUGAUUAACUGUGAAUAAACGUACAAUGAGUUCUUACUGUGUGUCUUCAUUUCUCCCUGAUGGUGUUUUCAGUUUAUUU	0.545
CAAAGUAGUUUCCCAAGGCAUUUCCCCUAUUGUUUACAUGGUCAAAAGGAAAAUCAAAAUCACUUCUAAUUACAAAAUGUGCUGUUUUGGUGGGGUGGGCAAUCAGAUUA	0.705
UGCAGUGUCAUCUUGAUUGUAUAUUGAAAAUACUGUGUAAUGAUGAAAUCAUAUUAUAAAUAUUUCAACUAAUUUUACUCUGAAUUUGUUUAUUAAAAGCUUUUUGAACA	1.02
CAGAGGCCUGAGGUUUCUAAAAGAAGGUAGAUUUCUACAGAGCUGAGUGUUGGUUCCUUUUUCUUAUUGGUUGAAAAUUACCUGGUAGUGAUCAGAAAACUUAGAUGCUA	0.767
CUUGACCAGACCCCUUCUCCCUGACCUGGCUCUUCCAGCCAGGGCACGAGCCCUCCUUCUAUACCUGCUCCCCUUCCCCCAGUGGGGACUGAGUUAUGGGAGAAGGGGAC	0.381

Block 4
Target: Interferon regulatory factor 5, full length, phosphomimetic (IRF5, Homo sapiens, UniProt Q13568-2, residues 1-514, S451D/S453D/S456D/S462D)
Method: protein-binding microarray
Form: double-stranded DNA, one strand shown
Sample: in vitro
Concentration: 940 nM top
Setting: 60-bp whole probe
Together with: salmon DNA 0.4 mg/ml
Reference: random background probes
Direction: higher = stronger binding
Shared flanks, not repeated: GCCTAGCAC … GTCTTGATTCGCTTGACGCTGCTG
Strand	fitted relative affinity
GACGAACTGAGTTTGGAGACGTGCTAG	-0.556 z-score
TCACTTTTCACTTTACAACTGTGCTAG	2.08 z-score
GACGGTTACGGGTTTCGGGACGTGCTA	1.89 z-score
TTAGGTATCGACGATCGGTTAGTGCTA	4.85 z-score
GACGGTCGCGGTTTCGGGACGTGCTAG	2.98 z-score
TACGATCTCAGTCTCGAGACGTGCTAG	1.43 z-score
GACGGTTCCCTTTTCCTGAAGTGCTAG	0.75 z-score
TTAGATTTCTGTATCGATTAGTGCTAG	2.71 z-score
GACGGTATGGACTATCGGGACGTGCTA	-0.208 z-score
GACGGTCACGGACTGGGGACGTGCTAG	-0.899 z-score
GACGATATAGGGTTTCGAGACGTGCTA	1.1 z-score
GAGGGTTTCGGTCTCGGGACGTGCTAG	11 z-score
TTGGGTATCGGTATCGGTTAGTGCTAG	9.33 z-score
TTCGCTTTCTTTAACTCATTGTGCTAG	1.91 z-score
GATGGTTTCCTTCTCCTGACGTGCTAG	2.1 z-score
GAAGGTTTCCTACTGCTGACGTGCTAG	0.375 z-score

Some of these lines once more (block 3):
Strand	RBNS enrichment (R)
CUCAUCAGUGGCUAAAGUUGAAAAGGGGUUGGUUUCCUGUAUAUAUAUGUAUGUAUAUACACACGUACAUACAUUCAUAUAUAUACAUAUAUACAUAAUGUGCUUAACCA	0.272
CUGACUUCUGCGGACAGCAAUUUGGUAGGUAGUGAUUAACUGUGAAUAAACGUACAAUGAGUUCUUACUGUGUGUCUUCAUUUCUCCCUGAUGGUGUUUUCAGUUUAUUU	0.545
CAAAGUAGUUUCCCAAGGCAUUUCCCCUAUUGUUUACAUGGUCAAAAGGAAAAUCAAAAUCACUUCUAAUUACAAAAUGUGCUGUUUUGGUGGGGUGGGCAAUCAGAUUA	0.705
